# Assay results from different studies.
# Protocols differ between the studies behind these lines. Values joined by “and” are separate records of one study, mostly repeats; a detail may differ. ± marks the error that the study gave. Ends that are not written are not given here.
# dxs: 1-deoxy-D-xylulose-5-phosphate synthase (dxs, Deinococcus radiodurans, UniProt Q9RUB5)
Molecule,target,test,system,conditions,measurement,value
N[C@@H](CCCC=O)C(=O)O,"Saccharopine dehydrogenase [NADP(+), L-glutamate-forming], D126A (LYS9, Saccharomyces cerevisiae, UniProt P38999)","enzyme activity, substrate",,"pH 7.0, 25 °C, D126A mutant, added: NADPH and L-glutamate saturating",Kd,1260 ± 80 µM
O=C(O)c1ccc(Oc2cn(-c3ccc(O)c(F)c3)nn2)cc1,"MIF (Homo sapiens, UniProt P14174)","cell-free assay, FP",,pH 7.4,Kd,1 to 2 µM and 1.15 µM
cardiolipin,"murJ (Escherichia coli, UniProt P0AF16)","binding, native mass spectrometry",delipidated protein in detergent,,Kd,13 ± 5 µM
NC(=O)c1ccc[n+]([C@@H]2O[C@H](COP(=O)([O-])OP(=O)(O)OC[C@H]3O[C@@H](n4cnc5c(N)ncnc54)[C@H](OP(=O)(O)O)[C@@H]3O)[C@@H](O)[C@H]2O)c1,"kptA (Runella slithyformis, UniProt A0A7U3ZK32)","binding, isothermal titration calorimetry",,17 °C,Kd,1020 ± 53 µM
CCCCN(Cc1ccc(C(=O)NO)cc1)C(=O)Nc1ccccc1,"MBLAC2 (Homo sapiens, UniProt Q68D91)","binding, competitor, chemoproteomic pulldown",SW-620 MV4-11 lysate,"1 h, 30 °C",Kd,0.0251 µM
O=P(O)(O)O[C@@H]1C(O)[C@H](OP(=O)(O)O)[C@@H](O)C(O)[C@@H]1O (some centres unmarked),"Fermitin family homolog 1, PH domain (Fermt1, Mus musculus, UniProt P59113, E416A)",surface plasmon resonance,,biotinylated compound immobilised,Kd,2370 µM
Nc1ncnc2c1ncn2[C@@H]1O[C@H](COP(=O)(O)OP(=O)(O)OP(=O)(O)O)[C@@H](O)[C@H]1O,"Tyrosine-protein kinase JAK1, kinase domain (JAK1, Homo sapiens, UniProt P23458)",,,,Kd,1.8 µM
Nc1nc2c(ncn2[C@@H]2O[C@@H]3COP(=O)(O)O[C@H]3[C@H]2O)c(=O)[nH]1,"Cyclic nucleotide-gated channel alpha-2 (CNGA2, Bos taurus, UniProt Q03041, E340G)","channel opening, agonist, single-channel recording",,E340G mutant,Kd,24 ± 12 µM
CCCCCC[N+](CC)(CC)CC,"CNGA1 (Bos taurus, UniProt Q00194)","cGMP-gated current block, channel blocker, inside-out patch clamp",HEK293,added: cGMP 1 mM,Kd,6144 ± 21 µM
CC(=O)N[C@H]1[C@H](O[C@H]2[C@@H](O)[C@@H](CO)O[C@H](O[C@@H]3[C@H](O)[C@@H](O)[C@H](O[C@H]4[C@H](O)[C@@H](O)[C@H](O)O[C@@H]4CO)O[C@@H]3CO)[C@@H]2O)O[C@H](CO)[C@H](O)[C@@H]1O[C@@H]1O[C@H](CO)[C@H](O)[C@H](O)[C@H]1O[C@@H]1O[C@@H](C)[C@@H](O)[C@@H](O)[C@@H]1O,"Ribonuclease pancreatic (Homo sapiens, UniProt P07998, P47C)","binding, solid-phase fluorescence binding",,"pH 5.0, 130 mM NaCl, surface glycan, added: BODIPY-labelled RNase",Kd,11 ± 2 µM
Cc1ncc(COP(=O)(O)O)c(C=O)c1O,"Intestinal-type alkaline phosphatase (Homo sapiens, UniProt P09923)","binding, SPR",,pH 7.4,Kd,782 µM
Nc1ncnc2c1ncn2[C@@H]1O[C@H](COP(=O)(O)OP(=O)(O)O)[C@@H](O)[C@H]1O,"ATP1A1 (Sus scrofa, UniProt P05024)","binding, radioligand binding",pig membranes,"pH 7.7, 0 °C, ionic strength 178 mM, added: NaCl 119 mM",Kd,0.649 ± 0.006 µM
c1ccc2c(c1)ccc1ccccc12,"Cytochrome P450 2A13 (Homo sapiens, UniProt Q16696)","binding, absorbance",,pH 7.4,Kd,2.3 µM
O=C(CCCOc1ccc(Cl)cc1Cl)N/N=C/c1ccc2cc[nH]c2c1,dxs,"binding, SPR",,,Kd,5 µM
O=C([O-])c1ccnc(-c2cc(C(=O)[O-])ccn2)c1.[Ru+2].c1ccc(-c2ccccn2)nc1.c1ccc(-c2ccccn2)nc1,"Prolyl oligopeptidase (Pyrococcus furiosus, UniProt Q51714, G99D/K255A/R198A/R338A/R55A/W142D/Y326D)","binding, luminescence lifetime titration",water,,Kd,185 ± 20 µM
Nc1ncnc2c1ncn2[C@@H]1O[C@H](COP(=O)(O)OP(=O)(O)OP(=O)(O)O)[C@@H](O)[C@H]1O,CFTR NBD1,"binding, thermal shift",,,Kd,1.2 ± 0.12 µM
CC[C@H](C)[C@H](NC(=O)[C@H](Cc1ccc(O)cc1)NC(=O)[C@@H]1CSSC[C@H](NC(=O)[C@@H](CCC(=O)O)NC(=O)[C@H](Cc2ccc(O)cc2)NC(=O)[C@H](CNC(=O)c2ccc(CN(CC(=O)O)C3CCCCC3N(CC(=O)O)CC(=O)O)nc2)NC(=O)c2ccc(CN(CC(=O)O)C3CCCCC3N(CC(=O)O)CC(=O)O)nc2)C(=O)N2C[C@H](O)C[C@H]2C(=O)N[C@@H](Cc2ccc(O)c(Cl)c2)C(=O)NCC(=O)N[C@@H](CC(C)C)C(=O)N1)C(=O)N[C@@H](CCC(N)=O)C(=O)NCc1ccc(CNC(=O)[C@H](CNC(=O)c2ccc(CN(CC(=O)O)C3CCCCC3N(CC(=O)O)CC(=O)O)nc2)NC(=O)c2ccc(CN(CC(=O)O)C3CCCCC3N(CC(=O)O)CC(=O)O)nc2)cc1 (some centres unmarked),fibrin fragment DD(E),fluorescence polarization displacement,,added: fluorescent fibrin-binding peptide,Kd,0.11 µM
Nc1ncnc2c1ncn2[C@@H]1O[C@H](COP(=O)(O)O)[C@@H](O)[C@H]1O,"GTP:AMP phosphotransferase AK3, mitochondrial (AK3, Homo sapiens, UniProt Q9UIJ7)","binding, NMR HSQC titration",,"pH 7.0, 25 °C, stronger binding site",Kd,210 ± 7 µM
{fluorescein-Ahx}-LPCDYYGTCLD (N-fluorescein-aminocaproyl; cysteine pairing not given here; Ahx = NCCCCCC(=O)O),fibrin fragment DD(E),fluorescence polarization,peptide,,Kd,1.3 ± 0.4 µM
O=C(NN=Cc1ccc(C[n+]2ccccc2)cc1)c1ccc2ccc3ccc(C(=O)NN=Cc4ccc(C[n+]5ccccc5)cc4)nc3c2n1,MYC snap-back G4 DNA,"binding, native ESI-MS",100 mM trimethylammonium acetate,1 mM KCl,Kd,0.3 µM
CCCCCCCCCCCCC/C=C/[C@@H](O)[C@H](CO[C@@H]1O[C@H](CO)[C@@H](O[C@@H]2O[C@H](CO)[C@H](O)[C@H](O[C@H]3O[C@H](CO)[C@H](O)[C@H](O)[C@H]3O)[C@H]2O)[C@H](O)[C@H]1O)NC(=O)CCCCCCCCCCCCCCCCCCCCCCCCC,"TRAV10/CD1D, T48C (Homo sapiens, UniProt A0A0B4J240+P15813)","T-cell receptor binding to complex, surface plasmon resonance",,"25 °C, compound loaded on protein",Kd,6.8 µM
C/C1=C2/[N-][C@H]([C@H](CC(N)=O)[C@@]2(C)CCC(=O)NC[C@H](C)OP(=O)([O-])O[C@H]2[C@@H](O)[C@@H](n3cnc4cc(C)c(C)cc43)O[C@@H]2CO)[C@]2(C)N=C(/C(C)=C3N=C(/C=C4N=C1[C@@H](CCC(N)=O)C\4(C)C)[C@@H](CCC(N)=O)[C@]\3(C)CC(N)=O)[C@@H](CCC(N)=O)[C@]2(C)CC(N)=O.[CH3-].[Co+3],"Cyanocobalamin reductase / alkylcobalamin dealkylase (MMACHC, Bos taurus, UniProt Q5E9C8)",UV-Vis spectroscopy,,dark conditions,Kd,4.7 ± 1 µM
O=C(CCCOc1ccc(Cl)cc1Cl)N/N=C/c1ncc[nH]1,dxs,"binding, SPR",,,Kd,2 µM
[I-].[K+],"SLC4A1 (Homo sapiens, UniProt P02730)","36Cl exchange flux, inhibitor, Dixon plot",human red blood cells,"pH 11.6 external, 0 °C, internal Cl 295 mM, CAPS buffer",Kd,44800 µM
CCC(C)(C)C(=O)O[C@H]1C[C@@H](C)C=C2C=C[C@H](C)[C@H](CC[C@@H]3C[C@@H](O)CC(=O)O3)[C@H]21,Rgg3 Streptococcus pyogenes,competition fluorescence polarization,,added: FITC-SHP2-C8 10 nM,Kd,9.7 µM
TAMRA-ADP,"mutS (Escherichia coli, UniProt P23909, D693V)",fluorescence anisotropy,,"room temperature, no DNA",Kd,2.62 ± 0.8 µM
CCCOC(=O)c1ccc(O)cc1,cysteine peptide Ac-RFAACAA-COOH,DPRA RapidFire-MS/MS,,"24 h, pH 7.5, added: 5.0 µM cysteine peptide",peptide depletion,inactive
O=C(CCCOc1ccc(Cl)cc1Cl)NCCc1ccc(O)cc1F,dxs,"binding, SPR",,,Kd,290 µM
CC/C(=C(\c1ccc(O)cc1)c1ccc(OCCN(C)C)cc1)c1ccccc1,"SULT1A1 (Homo sapiens, UniProt P50225)","binding, fluorescence titration",,"low-affinity site of E·PAP, added: 6.0 µM PAP",Kd,13 µM
[Na+],"melB (Salmonella typhimurium, UniProt P30878)",binding,,apo protein,Kd,~500 µM
CCCCCCCCCCCCCCCC(=O)OC[C@H](COP(=O)(O)O[C@@H]1[C@H](O)[C@H](OP(=O)(O)O)[C@@H](O)[C@H](O)[C@H]1O)OC(=O)CCCCCCCCCCCCCCC,"Early endosome antigen 1, FYVE domain (EEA1, Homo sapiens, UniProt Q15075)","membrane binding, surface plasmon resonance",POPC/POPE/compound vesicles 77:20:3,"pH 7.4, 25 °C",Kd,0.51 ± 0.01 µM
NCCCc1ccccc1,"Cystic fibrosis transmembrane conductance regulator, pore-binding site (CFTR, Homo sapiens, UniProt P13569, K1250A)","pore block, patch clamp",,estimated at 60 mV,Kd,10000 µM and ~10000 µM

# Excerpt of the above:
Molecule,target,test,system,conditions,measurement,value
NC(=O)c1ccc[n+]([C@@H]2O[C@H](COP(=O)([O-])OP(=O)(O)OC[C@H]3O[C@@H](n4cnc5c(N)ncnc54)[C@H](OP(=O)(O)O)[C@@H]3O)[C@@H](O)[C@H]2O)c1,"kptA (Runella slithyformis, UniProt A0A7U3ZK32)","binding, isothermal titration calorimetry",,17 °C,Kd,1020 ± 53 µM
CCCCN(Cc1ccc(C(=O)NO)cc1)C(=O)Nc1ccccc1,"MBLAC2 (Homo sapiens, UniProt Q68D91)","binding, competitor, chemoproteomic pulldown",SW-620 MV4-11 lysate,"1 h, 30 °C",Kd,0.0251 µM
O=P(O)(O)O[C@@H]1C(O)[C@H](OP(=O)(O)O)[C@@H](O)C(O)[C@@H]1O (some centres unmarked),"Fermitin family homolog 1, PH domain (Fermt1, Mus musculus, UniProt P59113, E416A)",surface plasmon resonance,,biotinylated compound immobilised,Kd,2370 µM
